Results gathered from unrelated publications.
Each line is one published result; not all experiments were run side by side. ± marks the error that the study gave.
Organism: HIV-1

| Structure (SMILES) | assay | test system | conditions | scale | measurement | value |
| --- | --- | --- | --- | --- | --- | --- |
| COc1ccc(-n2c(SCC#N)nnc2[C@H](Cc2ccccc2)NC(=O)Cc2c(C)[nH]c3ccccc23)cc1 |  | MT-4, wild type |  | baseline: CC50 over EC50 | selectivity index | 163 |
| CC[C@H](C)[C@H](NC(=O)[C@H](C)NC(=O)[C@H](CCC(=O)O)NC(C)=O)C(=O)NC1CCCC=CCCCC(C(=O)N[C@@H](CCC(N)=O)C(=O)N[C@@H](CC(C)C)C(=O)N[C@@H](CC(C)C)C(=O)N[C@@H](Cc2ccccc2)C(=O)N[C@H](C(=O)N[C@@H](Cc2c[nH]cn2)C(=O)N[C@@H](Cc2ccccc2)C(=O)N[C@@H](CCCNC(=N)N)C(=O)N[C@H](C(=O)NCC(N)=O)[C@@H](C)CC)[C@@H](C)CC)NC(=O)[C@H](CC(C)C)NC(=O)[C@H]([C@@H](C)CC)NC(=O)[C@H](CCCNC(=N)N)NC1=O (some centres unmarked) | viral replication, luciferase reporter | MT-4, NL4-3 |  |  | active concentration | > 2.5 µM |
| CC(=O)N[C@@H](CS)C(=O)N[C@@H](CO)C(=O)N[C@@H](CO)C(=O)N[C@@H](Cc1c[nH]c2ccccc12)C(=O)N[C@@H](Cc1ccc(O)cc1)C(=O)N1CCC[C@H]1C(=O)N[C@@H](Cc1ccccc1)C(=O)N[C@@H](CO)C(=O)N[C@@H](CCC(N)=O)C(=O)N[C@@H](Cc1ccc(O)cc1)C(=O)N[C@@H](CCC(N)=O)C(=O)N[C@@H](Cc1c[nH]c2ccccc12)C(=O)N[C@@H](Cc1c[nH]c2ccccc12)C(=O)N[C@@H](CCCCN)C(N)=O |  | YU2 pseudovirus (R5) | concentration not given |  | neutralisation activity | active |
| Cc1ccc2c(N)c(C(=O)Nc3cccc(C(F)(F)F)c3)sc2n1 |  | CEM-SS, RF |  | baseline: highest non-toxic concentration over EC50 | minimal selectivity index | ≥ 36 |
| CN(C)S(=O)(=O)c1cc(O)c(O)c2c1CN(Cc1ccc(F)c(Cl)c1)C2=O | viral replication | wild type, VSV-G pseudotyped |  |  | EC50 | 0.011 ± 0.003 µM |
| CC[C@H](C)[C@H](N)C(=O)N[C@@H](CO)C(=O)N[C@@H](Cc1ccccc1)C(=O)N[C@@H]1CSCc2ccc(cc2)-c2ccc(cc2)CSC[C@@H](C(=O)N[C@@H](CCC(=O)O)C(=O)N[C@@H](CO)C(=O)NCC(=O)N[C@@H](CO)C(N)=O)NC(=O)[C@H](Cc2ccc(O)cc2)NC(=O)[C@H](Cc2ccc(O)cc2)NC(=O)[C@H](CC(=O)O)NC(=O)[C@H](CC(C)C)NC(=O)[C@H](CC(C)C)NC(=O)[C@H](CCC(=O)O)NC1=O | viral entry, single-cycle pseudovirus | Env HIV-25925-2, subtype C |  |  | IC50 | 1.1 ± 0.2 µM |
| CC(C)N1CCn2cc(C(=O)NCc3ccc(F)cc3F)c(=O)c(O)c2C1=O | single-round infection |  | integrase E138K/Q148K vector | baseline: cpd over cabotegravir | antiviral potency ratio | > 12 |
| O=C1c2ccc(O)c(O)c2C(=O)N1Cc1ccc(F)c(Cl)c1 | viral replication | wild type, VSV-G pseudotyped |  |  | EC50 | 1.7 ± 0.5 µM |

Repeated from above:
| Structure (SMILES) | assay | test system | conditions | scale | measurement | value |
| --- | --- | --- | --- | --- | --- | --- |
| CC[C@H](C)[C@H](N)C(=O)N[C@@H](CO)C(=O)N[C@@H](Cc1ccccc1)C(=O)N[C@@H]1CSCc2ccc(cc2)-c2ccc(cc2)CSC[C@@H](C(=O)N[C@@H](CCC(=O)O)C(=O)N[C@@H](CO)C(=O)NCC(=O)N[C@@H](CO)C(N)=O)NC(=O)[C@H](Cc2ccc(O)cc2)NC(=O)[C@H](Cc2ccc(O)cc2)NC(=O)[C@H](CC(=O)O)NC(=O)[C@H](CC(C)C)NC(=O)[C@H](CC(C)C)NC(=O)[C@H](CCC(=O)O)NC1=O | viral entry, single-cycle pseudovirus | Env HIV-25925-2, subtype C |  |  | IC50 | 1.1 ± 0.2 µM |
